Measurements from different studies.
Protocols differ between the studies behind these lines. Numbers after ± are the reported error.

The GI50 of `Cc1c(C(=O)O)ccc2c3n(nc12)[C@@H]1[C@H](C3)N(CC2CC2)[C@@]2(C(=O)Nc3cc(Cl)ccc32)[C@H]1c1cccc(Cl)c1F` is reported as 0.007 µM (NUGC-4 (MDM2 non-amplified); cell growth, alamarBlue; 120 h).
`CNC(=O)c1ccccc1Sc1ccc2c(N)n[nH]c2c1` has a GI50 of 0.39 µM (Ba/F3 TEL-VEGFR2; cell growth, CCK-8).
`COc1c(O)cc2c(c1O)C(=O)c1c(cc(C)c(O)c1OC)C2=O` gave a viability of 79.6 ± 7.85% (HK-2 co-cultured with HepaRG; MTT; 33.33 µM, 48 h; baseline: untreated control).
`[Cl-].[Cl-].[Os+2].c1cnc2c(c1)ccc1cccnc12.c1cnc2c(c1)ccc1cccnc12.c1cnc2c(c1)ccc1cccnc12` has a GI50 of 87.5 µM (SK-MEL-28; cell growth, SRB; red light 633 nm, 1% O2 hypoxia).
With `Nc1n[nH]c2cc(I)ccc12` the GI50 was 0.25 µM (Ba/F3 TEL-VEGFR2; cell growth, CCK-8).
`Cn1cc(-c2ccc(-c3cncc(Cl)c3N3CCC4(CCNC4=O)CC3)cc2)cn1`: “log2 fold change” 2.45 (COLO 205; gene expression, microarray, item: IFI6 mRNA; concentration not given, 6 h; baseline: untreated cells).
For `Cn1cncc1C1=CN(c2ncnc3[nH]cnc23)CCS1`, the GI50 was 24 µM (SF-268; CNS cancer).
`CNC(=O)c1ccc(N2C(=S)N(c3ccc(C#N)c(C(F)(F)F)c3)C(=O)C2(C)C)cc1F` has a GI50 of 15.6 ± 0.27 µM (C4-2B; cell growth, MTT).
The viability of `O=C(O)c1cc(O)c2c(c1)C(=O)c1cccc(O)c1C2=O` is reported as 52.4 ± 3.75% (HK-2 co-cultured with HepaRG; MTT; 33.33 µM, 48 h; baseline: untreated control).
With `C[C@]12CC[C@H](O)CC1=CC[C@@H]1[C@@H]2CC[C@]2(C)C(n3cnc4ccccc43)=CC[C@@H]12` the GI50 was 2.2 ± 0.14 µM (C4-2B; cell growth, MTT).
`CC(C)C[C@H](NC(=O)C[C@H](O)[C@H](CC(C)C)NC(=O)[C@H](Cc1c[nH]cn1)NC(=O)CNC(=O)[C@@H](NC(=O)[C@H](C)NC(=O)[C@H](Cc1c[nH]c2ccccc12)NC(=O)[C@H](CCC(N)=O)NC(=O)[C@@H](Cc1ccccc1)NC(=O)COCCOCCNC(=O)CCC(C(=O)O)N1CCN(CC(=O)O)CCN(CC(=O)O)CCN(CC(=O)O)CC1)C(C)C)C(N)=O` (stereo partly drawn) [lutetium-177 labelled] has a tissue uptake of 0.09 ± 0.04 %ID/g (BALB/c nu/nu mice, muscle; intravenous, 500 pmol, 1 h, with: PA 300 µg).
For `O=C(/C=C/C=C/C=C/C1CCCCC1)NC1=C[C@@](O)(/C=C/C=C/C=C/C(=O)NC2=C(O)CCC2=O)[C@@H]2O[C@@H]2C1=O`, the GI50 was 11.7 µM (PC-14; cell growth, CellTiter-Glo; 78 h).

A few entries again:
`CNC(=O)c1ccccc1Sc1ccc2c(N)n[nH]c2c1` has a GI50 of 0.39 µM (Ba/F3 TEL-VEGFR2; cell growth, CCK-8).
